# Published values from different studies.
# Parts stem from different laboratories: compare values within a part only.

# Sample 1
# Target: Histone acetyltransferase KAT6A, both winged helices, GST fusion (KAT6A, Homo sapiens, UniProt Q92794, residues 1-181)
# Method: protein binding microarray
# Molecule type: double-stranded DNA, one strand shown
# Matrix: in vitro
# Tested at: not given
# Notes: 8-mer, flanks averaged, mean of 2 arrays, mostly near background
# Reference: not given
# Direction: higher = stronger binding
# Construct (chain): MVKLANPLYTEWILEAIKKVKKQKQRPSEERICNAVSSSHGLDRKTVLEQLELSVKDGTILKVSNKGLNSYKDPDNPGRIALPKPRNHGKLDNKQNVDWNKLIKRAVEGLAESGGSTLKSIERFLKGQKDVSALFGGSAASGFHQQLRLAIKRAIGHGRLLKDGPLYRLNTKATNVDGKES
Strand,E-score
CAGCCCAA,-0.196
CTGCATCA,-0.153
GAACCGTA,0.211
CATATGTC,0.11
AATCGGAC,0.00934

# Sample 2
# Target: Interferon regulatory factor 5, full length, phosphomimetic (IRF5, Homo sapiens, UniProt Q13568-2, residues 1-514, K96S/S451D/S453D/S456D/S462D)
# Method: protein-binding microarray
# Molecule type: double-stranded DNA, one strand shown
# Matrix: in vitro
# Tested at: 250 nM
# Notes: 60-bp whole probe
# Together with: salmon DNA 0.4 mg/ml
# Reference: random background probes
# Direction: higher = stronger binding
# All sequences stand within: GCCTAGCAC … GTGCTAGGTCTTGATTCGCTTGACGCTGCTG
Strand,log fluorescence [z-score]
TGGGTAATGCTTCTGTATTC,0.0388
TTAAGTCTCGGTCTCGGTTA,1.7
TTAGGACTGGGTTTGGGTTA,-0.481
GAGGGTTTCCTTTCCCTGAC,0.8
TTCGGTCTCCTTCTCCTTTA,1.13

# Sample 3
# Target: Sal-like protein 4, full length isoform A (SALL4, Homo sapiens, UniProt Q9UJQ4, residues 1-1053)
# Chain of UniProt Q9UJQ4 (whole entry, looked up): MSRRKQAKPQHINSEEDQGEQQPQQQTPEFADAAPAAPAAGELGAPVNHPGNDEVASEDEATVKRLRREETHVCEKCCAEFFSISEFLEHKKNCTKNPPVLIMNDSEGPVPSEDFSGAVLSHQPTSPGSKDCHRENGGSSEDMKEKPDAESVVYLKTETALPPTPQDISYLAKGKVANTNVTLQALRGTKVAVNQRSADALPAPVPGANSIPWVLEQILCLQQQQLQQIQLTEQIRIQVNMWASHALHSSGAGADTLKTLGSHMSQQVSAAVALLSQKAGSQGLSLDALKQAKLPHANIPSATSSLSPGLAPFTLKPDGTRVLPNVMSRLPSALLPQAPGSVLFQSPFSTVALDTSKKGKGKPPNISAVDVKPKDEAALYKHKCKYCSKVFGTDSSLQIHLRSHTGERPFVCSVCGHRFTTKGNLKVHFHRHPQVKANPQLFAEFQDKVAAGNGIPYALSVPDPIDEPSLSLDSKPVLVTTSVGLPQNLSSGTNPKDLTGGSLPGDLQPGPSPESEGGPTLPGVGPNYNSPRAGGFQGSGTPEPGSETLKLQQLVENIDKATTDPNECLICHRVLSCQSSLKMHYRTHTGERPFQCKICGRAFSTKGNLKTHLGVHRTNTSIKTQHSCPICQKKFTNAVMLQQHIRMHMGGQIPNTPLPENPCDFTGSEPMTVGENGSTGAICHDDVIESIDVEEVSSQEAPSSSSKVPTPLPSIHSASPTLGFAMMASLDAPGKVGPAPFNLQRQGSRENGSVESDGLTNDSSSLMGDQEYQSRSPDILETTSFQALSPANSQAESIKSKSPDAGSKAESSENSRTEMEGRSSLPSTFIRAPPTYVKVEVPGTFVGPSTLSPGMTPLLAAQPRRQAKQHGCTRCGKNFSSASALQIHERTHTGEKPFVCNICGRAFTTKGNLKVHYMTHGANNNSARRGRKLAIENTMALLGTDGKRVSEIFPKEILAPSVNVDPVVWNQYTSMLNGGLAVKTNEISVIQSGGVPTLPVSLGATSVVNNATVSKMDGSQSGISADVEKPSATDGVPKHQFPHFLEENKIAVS
# Method: universal PBM
# Molecule type: double-stranded DNA, one strand shown
# Matrix: in vitro
# Tested at: 600 nM
# Notes: 8-mer, flanks averaged, mean of replicates
# Direction: higher = stronger binding
Strand,E-score
ATCATCAG,0.104
ATTGCAGC,0.0695
GACTTAGC,-0.048
CGTGGGGA,-0.173

# Single results of other studies
Molecule,target,test,system,conditions,scale,measurement,result
"PhoQ, residues 284 288 289 292 302 303 NLALSC","PhoP, residues 12 14 15 18 19 DLLYY (Escherichia coli, UniProt P23836)","Sort-seq, item: YFP reporter",E. coli,"PhoQ-PhoP variant library, together with: 10 µM Mg2+","reference: high Mg2+ state, higher = stronger signaling",fold induction,0.426

# Repeated from above (sample 3):
Strand,E-score
ATCATCAG,0.104
ATTGCAGC,0.0695
